Assay results pooled from the literature.
Every numbered part comes from another study and shows a few of its results, in no order. Positions count from the first letter of the parent shown.

Set 1
Target: Prothrombin, mature alpha-thrombin (F2, Homo sapiens, UniProt P00734)
Technique: aptamer microarray, sandwich
Form: DNA with 2'F-ANA
Medium: in vitro
Concentration: 200 nM
Setting: whole 15-mer aptamer, many near background
Added: Cy3 exosite-II aptamer, 400 nM
Direction: higher = stronger binding
Measurement: mean fluorescence intensity
Oligonucleotide: GGTTGGTGTGGTTGG
2'F-ANA at 1 6 8 9 11 12 14 15: 69.9 a.u.
2'F-ANA at 1 2 5 7 15: 56.6 a.u.
2'F-ANA at 1 2 7 10 13: 51.4 a.u.
2'F-ANA at 5 10 14: 45.1 a.u.
2'F-ANA at 4 6 7 10 12: 121 a.u.
2'F-ANA at 2 4 11 13: 221 a.u.
2'F-ANA at 1 5 7 10 11 14 15: 45.8 a.u.
2'F-ANA at 2 4 7 8 11 13 14 15: 104 a.u.
2'F-ANA at 4 5 6 9 10: 44.6 a.u.
2'F-ANA at 1 2 3 5 6 9 10 11 15: 52.4 a.u.
2'F-ANA at 1 3 6 7 11 13: 188 a.u.
2'F-ANA at 1 5 9 11 14 15: 47.4 a.u.
2'F-ANA at 1 2 6 7 8 9 10 11 13 14 15: 51.8 a.u.
2'F-ANA at 1 5 6 7 9 12 14: 44 a.u.
2'F-ANA at 2 6 7 9 10 11 13 15: 98.2 a.u.
2'F-ANA at 2 5 7 8 14 15: 57.2 a.u.
2'F-ANA at 3 6 7 9 13: 695 a.u.

Set 2
Target: Ras GTPase-activating protein-binding protein 1, RRM domain (G3BP1, Homo sapiens, UniProt Q13283)
UniProt Q13283, sequence (whole entry, looked up): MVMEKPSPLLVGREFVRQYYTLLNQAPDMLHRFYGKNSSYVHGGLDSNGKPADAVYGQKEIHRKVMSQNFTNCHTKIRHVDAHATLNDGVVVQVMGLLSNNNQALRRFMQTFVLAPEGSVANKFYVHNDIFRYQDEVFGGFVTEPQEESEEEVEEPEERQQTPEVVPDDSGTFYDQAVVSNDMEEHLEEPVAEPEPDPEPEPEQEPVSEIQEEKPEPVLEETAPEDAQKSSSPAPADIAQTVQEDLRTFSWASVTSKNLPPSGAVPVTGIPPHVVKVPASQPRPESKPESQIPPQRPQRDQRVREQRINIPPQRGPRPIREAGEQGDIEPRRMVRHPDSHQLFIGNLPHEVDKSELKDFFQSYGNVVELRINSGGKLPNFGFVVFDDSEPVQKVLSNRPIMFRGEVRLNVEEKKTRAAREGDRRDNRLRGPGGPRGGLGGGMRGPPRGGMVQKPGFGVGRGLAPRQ
Technique: RNA Bind-n-Seq
Form: RNA
Medium: in vitro
Concentration: 1 µM
Setting: whole 134-nt RNA, ends assumed
Added: 150 mM KCl
Baseline: input library
Direction: higher = stronger binding
Measurement: log2 enrichment
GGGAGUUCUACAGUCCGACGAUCUCAAGUCCUGUGCUACACAUCGUAUGUACCGAAUCGGGGAGGGGUGGGGUGGGGAAAGUAUUAUGUUACGCCGUUCGGAUCUGCACUUCCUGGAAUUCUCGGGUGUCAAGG: 1.35
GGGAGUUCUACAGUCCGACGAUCUCCUGUGCUACACAUCGUAUGUACCGAAUCGGGCCCCCCGGGCCCCCCGGGCCCCCCGGAAAGUAUUAUGUUACGCCGUUCGGAUCUGCAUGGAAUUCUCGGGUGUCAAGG: -0.51
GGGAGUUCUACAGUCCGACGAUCCAAGUCCUGUGCUACACAUCGUAUGUACCGAAUCGGUGGUUUUUUUGGUUUUUGGAAAGUAUUAUGUUACGCCGUUCGGAUCUGCACUUCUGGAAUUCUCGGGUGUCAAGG: -0.245
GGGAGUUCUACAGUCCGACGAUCCUGUGCUACACAUCGUAUGUACCGAAUCGGGGUUUUUUUGGUUUUUUUGGGUUUUUUUGGGAAAGUAUUAUGUUACGCCGUUCGGAUCUGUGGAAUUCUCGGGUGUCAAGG: -0.278
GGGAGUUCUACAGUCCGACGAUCAGUCCUGUGCUACACAUCGUAUGUACCGAAUCGGGGUUUUGGGUUUUGGGGUUUUGGAAAGUAUUAUGUUACGCCGUUCGGAUCUGCACUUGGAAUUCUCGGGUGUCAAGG: -0.209
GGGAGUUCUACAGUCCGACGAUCUCCUGUGCUACACAUCGUAUGUACCGAAUCGGAAAAAAAGGUUUUUUUGGUUUUUUUGGAAAGUAUUAUGUUACGCCGUUCGGAUCUGCAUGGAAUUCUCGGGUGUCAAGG: -0.257
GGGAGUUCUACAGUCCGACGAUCUCCUGUGCUACACAUCGUAUGUACCGAAUCGGGGUUUUUGGGGAAAAAGGGGUUUGGGGAAAGUAUUAUGUUACGCCGUUCGGAUCUGCAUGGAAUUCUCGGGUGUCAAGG: 1.24
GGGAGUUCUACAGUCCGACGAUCAAGUCCUGUGCUACACAUCGUAUGUACCGAAUCGGGGAAAAAGGGGAGGGGUGGGGAAAGUAUUAUGUUACGCCGUUCGGAUCUGCACUUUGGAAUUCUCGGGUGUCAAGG: 0.905
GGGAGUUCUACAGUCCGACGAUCCUCAAGUCCUGUGCUACACAUCGUAUGUACCGAAUCGGGAAGGAAGGGGAAGGGAAAGUAUUAUGUUACGCCGUUCGGAUCUGCACUUCCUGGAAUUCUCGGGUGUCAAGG: 0.585
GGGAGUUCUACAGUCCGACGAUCCUGUGCUACACAUCGUAUGUACCGAAUCGGGCCCCCCCGGGGCCCCCCCGGCCCCCCCGGGGAAAGUAUUAUGUUACGCCGUUCGGAUCUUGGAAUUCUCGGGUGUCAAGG: -0.616

Set 3
Target: CCND1, cyclin fold, Cln2 fusion (human)
Technique: yeast growth competition, sequencing
Medium: yeast
Setting: weak parent motif
Baseline: not given
Direction: higher = stronger binding
Measurement: normalised enrichment score
Starting sequence: ORC1 docking peptide (human); PRARKRLELGNLG; partner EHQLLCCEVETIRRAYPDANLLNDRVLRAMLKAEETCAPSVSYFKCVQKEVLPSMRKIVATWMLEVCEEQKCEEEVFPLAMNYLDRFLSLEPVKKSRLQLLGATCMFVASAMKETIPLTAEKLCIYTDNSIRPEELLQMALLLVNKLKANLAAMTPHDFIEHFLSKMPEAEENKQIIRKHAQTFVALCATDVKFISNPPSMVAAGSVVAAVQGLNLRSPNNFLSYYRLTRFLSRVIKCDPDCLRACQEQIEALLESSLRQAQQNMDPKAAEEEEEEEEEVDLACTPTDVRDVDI
PRARKGLELGNLG [R6G]: 0.498
PRARDRLELGNLG [K5D]: -0.364
PRARKRLELVNLG [G10V]: -0.329
PRARKRLELGQLG [N11Q]: -0.509
PRARKRLELGNMG [L12M]: 0.472
PRIRKRLELGNLG [A3I]: -0.401
PRARKRLELGDLG [N11D]: 0.0724
PRARMRLELGNLG [K5M]: -0.307
PRARKRLELGNQG [L12Q]: -0.391
PRARKRLELRNLG [G10R]: -0.376
PRARKRLMLGNLG [E8M]: -0.238
PRARKRLLLGNLG [E8L]: 0.222
PRARKRLELGNYG [L12Y]: -0.258
PDARKRLELGNLG [R2D]: 0.208
PRARKRLECGNLG [L9C]: -0.0028
PRARKRLWLGNLG [E8W]: 0.308
PRADKRLELGNLG [R4D]: 0.524
SRARKRLELGNLG [P1S]: -0.246
PRARKRLEFGNLG [L9F]: 0.386
PRARKRLELCNLG [G10C]: 0.0293
PRARKRLELPNLG [G10P]: -0.479
PRARKRCELGNLG [L7C]: -0.129

Set 4
Target: RNA binding protein fox-1 homolog 2, RRM domain, GST-SBP tag (RBFOX2, Homo sapiens, UniProt O43251-10, residues 100-194)
Technique: RNA Bind-n-Seq
Form: RNA
Medium: in vitro
Concentration: 365 nM
Setting: natural RNA segment, single round, ends assumed
Baseline: no-protein control
Direction: higher = stronger binding
Measurement: RBNS enrichment (R)
Construct (chain): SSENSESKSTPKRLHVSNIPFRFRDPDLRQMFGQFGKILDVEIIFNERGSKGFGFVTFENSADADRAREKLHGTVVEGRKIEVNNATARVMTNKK
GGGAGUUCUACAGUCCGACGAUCUGAGCACUGCUCUAACAACAAGCAUAAUAUAAAAUUAGUUAGAUUUUGCAAGUCUACAAAUGAGCUCUUGCAACAGAACUCACAGCCUUUUUACUUUUUUCCCCUAACUUUGGAAUUCUCGGGUGCCAA: 0.695
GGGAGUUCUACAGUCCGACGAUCCGAGAAGCCUUACAAAUGUGAGGUUUGCAGCAAGGCCUUUUCCCAGAGCUCUGACCUCAUCAAACACCAGCGCACGCAUACAGGCGAGCGGCCCUACAAGUGUCCCAGGUUGGAAUUCUCGGGUGCCAA: 0.397
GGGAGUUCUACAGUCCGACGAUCUACCAUGUGACCGGAGCAGAGGAAUUUGAAUUUGGCAGGAGCUUUUUCUACUGGAGAGACCCUCACUUUGGGGUGAUGGUCCUGACCUAGACCCAGAGUCUGGAAGCUUCUGGAAUUCUCGGGUGCCAA: 0.291
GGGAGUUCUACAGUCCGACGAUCACUAACAAAGUGGUCGCAGGAGAUUUUGGAACGGCUGGUUUAAAUGGCUUCAGGAGACUUCAGUUUUUUGUUUAGCUACAUGAUUGAAUGCAUAAUAAAUGCUUUGUGCUUGGAAUUCUCGGGUGCCAA: 0.702
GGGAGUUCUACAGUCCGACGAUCCUCUGCAUGGCACAUGGUCAAGGAAACUGUCCUUGGCUCAGACAGACCUGGGGUGGUGGGCAUCUGGCUGAACCUUGAGGAGGGAAAGCUUGCCUUCUAUUCAGUGGACAUGGAAUUCUCGGGUGCCAA: 0.814
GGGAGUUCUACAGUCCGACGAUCUGUAUCUUACAGCAUUGUACCCCAUUGUUAAAGAGCCGUGUCCCCUCUUCUUAUAAACGCCCUUCUAAUAAACUUUUCACCGUAAAGCUCCUGAGACAGGAGCACAGUCUUGGAAUUCUCGGGUGCCAA: 0.643
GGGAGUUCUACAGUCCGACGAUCAAGAAGUUGUGGCCCUGGCCAUGUCAUCGUGUUCCUGUGUCCCCUGCAUGUACCCCACCCUCCACCCCUUCCUUUUGCGCGGACCCCAUUACAAUAAAUUUUAAAUAAAAUGGAAUUCUCGGGUGCCAA: 2.54
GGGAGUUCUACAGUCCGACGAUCUGUCUGAACUAACACUCCCGCGAGCACUAUACUCUUUAUACUCUGAUCCCCCUAGUUCAUCUUAAAUUUGUCCGUGGCCCUGGCAAGAUAGCGUACACAAGAUUCCAUGAUGGAAUUCUCGGGUGCCAA: 1.26
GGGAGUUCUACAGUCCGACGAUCGUUGAGCCUUUUGAGUAUUUAAAAAAUAUAUACCAACAGAACUACUCUCCCAAGGAAAAUAUUGCCACCAUUUGUAGACCACGUAACCUUCAAGUAUGUGCUACUUUUUUUGGAAUUCUCGGGUGCCAA: 0.339
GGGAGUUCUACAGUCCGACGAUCAUGACUUUGAGCCAUCUCCAGAGAAGGAAGUGAAAAUUGUGGCUCCCCAGUCGAUUGGGACACAGUCUCUCUUUGUCUAGGUAACACAUGGUGACACAUAGCAUUGAACUUGGAAUUCUCGGGUGCCAA: 0.336
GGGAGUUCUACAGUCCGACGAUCAAAGGGAUAAAGAAAAAAAUACUAUUUAAGAUGUGAAAAUUACAGUCCAAAAUACUGUUCUUUCCAGGCUAUGUAUAAAAUACAUAGUGAAAAUUGUUUAGUGAUAUUACUGGAAUUCUCGGGUGCCAA: 0.435
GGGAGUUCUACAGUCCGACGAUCGCAGCCUCCCCAUACUCUGCUCCUGAUGUGGCAACCCUUGUCGGCUCCUGCCUUUGCCCCCCACUUUAAUCUAAGCACUGGGCCAUGAAAUCUGACACUAAGGUACCCUGUGGAAUUCUCGGGUGCCAA: 0.521

Excerpt of the above (set 4):
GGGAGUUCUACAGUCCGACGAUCAAAGGGAUAAAGAAAAAAAUACUAUUUAAGAUGUGAAAAUUACAGUCCAAAAUACUGUUCUUUCCAGGCUAUGUAUAAAAUACAUAGUGAAAAUUGUUUAGUGAUAUUACUGGAAUUCUCGGGUGCCAA: 0.435
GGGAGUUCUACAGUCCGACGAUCCUCUGCAUGGCACAUGGUCAAGGAAACUGUCCUUGGCUCAGACAGACCUGGGGUGGUGGGCAUCUGGCUGAACCUUGAGGAGGGAAAGCUUGCCUUCUAUUCAGUGGACAUGGAAUUCUCGGGUGCCAA: 0.814
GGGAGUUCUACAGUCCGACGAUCACUAACAAAGUGGUCGCAGGAGAUUUUGGAACGGCUGGUUUAAAUGGCUUCAGGAGACUUCAGUUUUUUGUUUAGCUACAUGAUUGAAUGCAUAAUAAAUGCUUUGUGCUUGGAAUUCUCGGGUGCCAA: 0.702
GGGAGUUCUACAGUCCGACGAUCUGUCUGAACUAACACUCCCGCGAGCACUAUACUCUUUAUACUCUGAUCCCCCUAGUUCAUCUUAAAUUUGUCCGUGGCCCUGGCAAGAUAGCGUACACAAGAUUCCAUGAUGGAAUUCUCGGGUGCCAA: 1.26
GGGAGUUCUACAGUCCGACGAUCGUUGAGCCUUUUGAGUAUUUAAAAAAUAUAUACCAACAGAACUACUCUCCCAAGGAAAAUAUUGCCACCAUUUGUAGACCACGUAACCUUCAAGUAUGUGCUACUUUUUUUGGAAUUCUCGGGUGCCAA: 0.339
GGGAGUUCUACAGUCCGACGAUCGCAGCCUCCCCAUACUCUGCUCCUGAUGUGGCAACCCUUGUCGGCUCCUGCCUUUGCCCCCCACUUUAAUCUAAGCACUGGGCCAUGAAAUCUGACACUAAGGUACCCUGUGGAAUUCUCGGGUGCCAA: 0.521
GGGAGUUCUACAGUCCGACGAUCUACCAUGUGACCGGAGCAGAGGAAUUUGAAUUUGGCAGGAGCUUUUUCUACUGGAGAGACCCUCACUUUGGGGUGAUGGUCCUGACCUAGACCCAGAGUCUGGAAGCUUCUGGAAUUCUCGGGUGCCAA: 0.291
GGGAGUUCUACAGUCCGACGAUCAAGAAGUUGUGGCCCUGGCCAUGUCAUCGUGUUCCUGUGUCCCCUGCAUGUACCCCACCCUCCACCCCUUCCUUUUGCGCGGACCCCAUUACAAUAAAUUUUAAAUAAAAUGGAAUUCUCGGGUGCCAA: 2.54
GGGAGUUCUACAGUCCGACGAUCUGAGCACUGCUCUAACAACAAGCAUAAUAUAAAAUUAGUUAGAUUUUGCAAGUCUACAAAUGAGCUCUUGCAACAGAACUCACAGCCUUUUUACUUUUUUCCCCUAACUUUGGAAUUCUCGGGUGCCAA: 0.695
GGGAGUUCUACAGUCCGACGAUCAUGACUUUGAGCCAUCUCCAGAGAAGGAAGUGAAAAUUGUGGCUCCCCAGUCGAUUGGGACACAGUCUCUCUUUGUCUAGGUAACACAUGGUGACACAUAGCAUUGAACUUGGAAUUCUCGGGUGCCAA: 0.336
